Published values from different studies.
Protocols differ between the studies behind these lines. ± marks the error that the study gave.
AR: Androgen receptor (AR, Homo sapiens, UniProt P10275)
Sequence of UniProt P06276 (whole entry, looked up): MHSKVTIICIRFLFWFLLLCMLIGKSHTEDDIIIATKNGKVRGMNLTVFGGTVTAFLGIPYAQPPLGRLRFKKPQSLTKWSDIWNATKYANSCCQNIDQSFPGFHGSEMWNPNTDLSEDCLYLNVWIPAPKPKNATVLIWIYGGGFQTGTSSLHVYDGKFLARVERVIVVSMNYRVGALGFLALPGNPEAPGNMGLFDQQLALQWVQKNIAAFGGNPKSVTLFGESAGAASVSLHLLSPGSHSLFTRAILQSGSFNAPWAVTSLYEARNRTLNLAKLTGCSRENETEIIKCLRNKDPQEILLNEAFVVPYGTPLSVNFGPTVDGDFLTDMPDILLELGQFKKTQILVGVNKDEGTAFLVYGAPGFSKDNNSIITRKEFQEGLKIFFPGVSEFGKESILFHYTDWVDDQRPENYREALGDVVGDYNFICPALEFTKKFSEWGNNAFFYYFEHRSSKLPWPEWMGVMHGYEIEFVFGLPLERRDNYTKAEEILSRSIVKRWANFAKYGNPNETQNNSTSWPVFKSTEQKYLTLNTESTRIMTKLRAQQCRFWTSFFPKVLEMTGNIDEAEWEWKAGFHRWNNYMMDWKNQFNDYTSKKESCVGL
Sequence of UniProt P81908 (whole entry, looked up): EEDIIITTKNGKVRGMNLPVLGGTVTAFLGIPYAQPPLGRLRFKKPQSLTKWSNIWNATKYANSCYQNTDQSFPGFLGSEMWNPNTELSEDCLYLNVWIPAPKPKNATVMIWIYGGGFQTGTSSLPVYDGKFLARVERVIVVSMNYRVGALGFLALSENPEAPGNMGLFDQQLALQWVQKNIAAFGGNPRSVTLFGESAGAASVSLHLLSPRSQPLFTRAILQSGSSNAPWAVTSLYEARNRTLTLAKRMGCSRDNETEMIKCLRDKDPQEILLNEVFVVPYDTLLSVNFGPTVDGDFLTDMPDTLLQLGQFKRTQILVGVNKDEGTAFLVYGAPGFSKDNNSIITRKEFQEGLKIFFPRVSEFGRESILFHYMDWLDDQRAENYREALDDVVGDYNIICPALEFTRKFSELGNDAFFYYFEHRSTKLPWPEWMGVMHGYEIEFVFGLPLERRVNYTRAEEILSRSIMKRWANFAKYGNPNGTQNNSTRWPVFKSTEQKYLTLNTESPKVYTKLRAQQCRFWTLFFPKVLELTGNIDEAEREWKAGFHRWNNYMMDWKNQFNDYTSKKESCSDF
Sequence of UniProt P10275 (whole entry, looked up): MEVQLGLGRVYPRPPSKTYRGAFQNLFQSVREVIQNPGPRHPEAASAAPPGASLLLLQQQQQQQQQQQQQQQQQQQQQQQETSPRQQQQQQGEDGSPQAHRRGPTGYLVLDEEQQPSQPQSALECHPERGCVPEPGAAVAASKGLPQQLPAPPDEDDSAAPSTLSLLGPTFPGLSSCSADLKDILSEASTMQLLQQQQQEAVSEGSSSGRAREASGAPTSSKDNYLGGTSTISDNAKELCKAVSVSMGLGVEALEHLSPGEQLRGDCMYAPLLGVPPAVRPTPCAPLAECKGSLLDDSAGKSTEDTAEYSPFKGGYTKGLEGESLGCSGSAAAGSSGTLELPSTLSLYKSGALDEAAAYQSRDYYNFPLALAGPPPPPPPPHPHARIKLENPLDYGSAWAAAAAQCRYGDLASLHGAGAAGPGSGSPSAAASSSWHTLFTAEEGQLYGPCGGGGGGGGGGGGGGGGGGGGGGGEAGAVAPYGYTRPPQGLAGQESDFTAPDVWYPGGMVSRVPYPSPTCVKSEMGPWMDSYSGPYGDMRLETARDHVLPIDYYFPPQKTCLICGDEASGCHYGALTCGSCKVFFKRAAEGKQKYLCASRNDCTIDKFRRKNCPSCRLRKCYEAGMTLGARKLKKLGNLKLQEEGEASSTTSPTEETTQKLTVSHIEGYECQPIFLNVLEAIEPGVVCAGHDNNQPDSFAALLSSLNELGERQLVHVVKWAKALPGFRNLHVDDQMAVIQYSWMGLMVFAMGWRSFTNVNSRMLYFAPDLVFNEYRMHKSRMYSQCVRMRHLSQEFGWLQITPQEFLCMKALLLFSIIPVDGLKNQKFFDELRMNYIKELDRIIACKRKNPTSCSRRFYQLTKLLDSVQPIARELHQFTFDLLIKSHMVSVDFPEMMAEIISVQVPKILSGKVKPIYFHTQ
Sequence of UniProt Q00975 (whole entry, looked up): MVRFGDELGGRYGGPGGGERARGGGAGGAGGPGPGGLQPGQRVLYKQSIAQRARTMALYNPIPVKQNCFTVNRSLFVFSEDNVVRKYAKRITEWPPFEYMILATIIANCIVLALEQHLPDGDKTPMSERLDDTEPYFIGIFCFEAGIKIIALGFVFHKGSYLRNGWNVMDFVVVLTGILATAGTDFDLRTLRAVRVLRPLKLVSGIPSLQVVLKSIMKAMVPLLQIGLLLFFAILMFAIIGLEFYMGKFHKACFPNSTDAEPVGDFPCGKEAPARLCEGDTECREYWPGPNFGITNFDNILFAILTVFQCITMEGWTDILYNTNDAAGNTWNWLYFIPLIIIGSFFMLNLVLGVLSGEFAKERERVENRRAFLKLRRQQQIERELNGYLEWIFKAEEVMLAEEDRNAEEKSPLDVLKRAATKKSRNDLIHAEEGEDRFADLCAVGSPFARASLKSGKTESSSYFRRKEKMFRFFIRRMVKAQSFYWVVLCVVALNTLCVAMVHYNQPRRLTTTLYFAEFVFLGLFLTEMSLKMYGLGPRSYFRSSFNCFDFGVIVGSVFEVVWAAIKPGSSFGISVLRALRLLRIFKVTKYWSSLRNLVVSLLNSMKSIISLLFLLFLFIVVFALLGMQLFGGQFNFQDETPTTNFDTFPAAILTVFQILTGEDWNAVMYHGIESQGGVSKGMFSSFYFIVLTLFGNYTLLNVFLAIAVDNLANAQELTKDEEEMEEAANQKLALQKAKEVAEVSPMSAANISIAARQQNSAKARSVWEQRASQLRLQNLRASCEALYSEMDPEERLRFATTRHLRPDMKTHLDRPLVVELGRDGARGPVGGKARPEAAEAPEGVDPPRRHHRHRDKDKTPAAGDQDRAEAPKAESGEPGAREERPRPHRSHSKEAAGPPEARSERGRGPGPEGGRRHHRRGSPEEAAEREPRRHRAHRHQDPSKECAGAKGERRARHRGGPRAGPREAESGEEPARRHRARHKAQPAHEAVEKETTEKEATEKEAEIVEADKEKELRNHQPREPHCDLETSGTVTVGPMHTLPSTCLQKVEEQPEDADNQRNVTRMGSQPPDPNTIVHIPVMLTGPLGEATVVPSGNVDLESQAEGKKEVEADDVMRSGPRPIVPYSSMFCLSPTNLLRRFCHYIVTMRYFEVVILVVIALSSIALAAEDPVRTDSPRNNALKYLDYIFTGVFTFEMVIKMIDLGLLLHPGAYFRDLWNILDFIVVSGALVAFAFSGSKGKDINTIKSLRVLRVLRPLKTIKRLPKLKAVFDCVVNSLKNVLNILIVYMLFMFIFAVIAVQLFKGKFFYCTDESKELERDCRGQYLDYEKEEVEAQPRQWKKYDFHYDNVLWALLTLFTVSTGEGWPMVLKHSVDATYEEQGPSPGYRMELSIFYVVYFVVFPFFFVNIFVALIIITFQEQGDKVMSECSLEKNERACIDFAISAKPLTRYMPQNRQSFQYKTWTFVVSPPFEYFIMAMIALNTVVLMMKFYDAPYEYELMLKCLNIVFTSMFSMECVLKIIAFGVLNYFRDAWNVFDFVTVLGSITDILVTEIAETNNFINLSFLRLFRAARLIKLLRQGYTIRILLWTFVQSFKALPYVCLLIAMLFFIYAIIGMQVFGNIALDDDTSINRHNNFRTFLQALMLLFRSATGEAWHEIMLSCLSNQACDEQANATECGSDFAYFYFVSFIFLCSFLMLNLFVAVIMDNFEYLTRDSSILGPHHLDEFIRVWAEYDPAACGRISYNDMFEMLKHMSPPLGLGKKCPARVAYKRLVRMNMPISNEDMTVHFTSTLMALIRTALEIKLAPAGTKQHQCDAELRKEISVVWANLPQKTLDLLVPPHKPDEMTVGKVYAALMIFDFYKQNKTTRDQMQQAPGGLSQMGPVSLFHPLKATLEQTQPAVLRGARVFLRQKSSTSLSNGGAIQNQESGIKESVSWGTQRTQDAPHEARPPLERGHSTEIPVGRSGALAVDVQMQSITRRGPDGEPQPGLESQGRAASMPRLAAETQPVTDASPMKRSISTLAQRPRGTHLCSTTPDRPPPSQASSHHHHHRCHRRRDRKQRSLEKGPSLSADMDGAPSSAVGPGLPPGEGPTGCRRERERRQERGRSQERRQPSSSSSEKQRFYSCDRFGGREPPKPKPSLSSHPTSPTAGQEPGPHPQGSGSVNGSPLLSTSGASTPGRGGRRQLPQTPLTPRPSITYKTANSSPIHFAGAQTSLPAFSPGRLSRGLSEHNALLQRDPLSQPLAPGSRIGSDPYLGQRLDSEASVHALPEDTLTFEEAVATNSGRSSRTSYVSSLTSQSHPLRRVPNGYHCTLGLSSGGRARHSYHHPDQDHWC
Sequence of UniProt Q15759 (whole entry, looked up): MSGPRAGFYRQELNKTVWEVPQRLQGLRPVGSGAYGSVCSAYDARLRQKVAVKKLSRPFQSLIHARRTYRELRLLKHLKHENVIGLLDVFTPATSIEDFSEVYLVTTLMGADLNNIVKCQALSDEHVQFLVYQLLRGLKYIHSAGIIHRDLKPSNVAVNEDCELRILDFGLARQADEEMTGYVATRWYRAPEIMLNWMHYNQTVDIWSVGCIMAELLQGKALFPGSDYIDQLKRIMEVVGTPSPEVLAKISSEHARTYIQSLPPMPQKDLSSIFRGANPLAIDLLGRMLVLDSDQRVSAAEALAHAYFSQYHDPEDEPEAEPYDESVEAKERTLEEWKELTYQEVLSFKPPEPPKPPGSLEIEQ
Sequence of UniProt A5GZW8 (whole entry, looked up): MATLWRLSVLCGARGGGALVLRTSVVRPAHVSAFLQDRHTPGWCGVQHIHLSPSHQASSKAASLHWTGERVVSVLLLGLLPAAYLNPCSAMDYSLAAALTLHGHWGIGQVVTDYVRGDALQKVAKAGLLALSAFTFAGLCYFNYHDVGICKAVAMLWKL

For `Nc1c(S(=O)(=O)O)cc(Nc2ccc(Nc3nc(Cl)nc(Nc4cccc(S(=O)(=O)O)c4)n3)c(S(=O)(=O)O)c2)c2c1C(=O)c1ccccc1C2=O`, potency read “decreased” (TGM2 (Homo sapiens, UniProt P21980); enzyme activity, inhibitor; added: Triton X-100 0.02%).
For `COc1ccc(N2C(=O)N(c3c(C)cccc3Cl)Cc3cnc(Nc4ccc(C5CCN(C)CC5)cc4OC)nc32)nc1`, the inhibition was 93% (FES (Homo sapiens, UniProt P07332); kinase activity; 0.5 µM).
`Nc1ncnc2c1ncn2[C@@H]1O[C@@H]2COP(=O)(O)O[C@H]3[C@@H](O)[C@H](n4cnc5c(=O)[nH]cnc54)O[C@@H]3COP(=O)(O)O[C@H]2[C@H]1O`: “pathway fold enrichment” 3.81 (HFF-1; RNA sequencing, measured: Signaling by Interleukins; upregulated pathway; relative to: Zika virus alone).
`Nc1ncc(-c2nc(N3CCOCC3)nc(N3CCOCC3)n2)c(C(F)F)n1` has a remaining binding of 104% (sodium channel site 2; radioligand binding, antagonist ligand; 10 µM; relative to: control).
With `O=C(c1ccc(Cl)cc1)N1CCN2C(=O)N(OC(=O)N3CCOc4ccccc43)C(=O)C2C1` (stereo not shown) the median ratio was 1.18 (Cholinesterase (BCHE, Homo sapiens, UniProt P06276); enzyme activity, inhibitor, MS-based ABPP; SW-620 conditioned medium; 10 µM, 1 h, 37 °C; relative to: compound over DMSO, lower = stronger inhibition).
The inhibition of `CN(C(=O)n1cnc(-c2ccc[n+]([O-])c2)c1)C1CCCCC1` is reported as 5% (HTR4 (Cavia porcellus, UniProt O70528); radioligand binding; 10 µM, added: [3H]GR-113808).
`O=C(O)C1=CC(O)CC1` (stereo not shown) — result for “tryptophan fluorescence quenching”: “no effect” (Calcium/calmodulin-dependent protein kinase type II subunit alpha, hub domain (CAMK2A, Homo sapiens, UniProt Q9UQM7); intrinsic Trp fluorescence; concentration not given, wild-type hub domain).
`C[C@H]1CN(c2n[nH]c3nc(N[C@H]4CC[C@H](NS(=O)(=O)CCC(F)(F)F)CC4)ncc23)CCO1` gave a remaining binding of 0.68 (MAPK11 (Homo sapiens, UniProt Q15759); Kinobeads competition; HEK293, K562, placenta lysate; 0.16 µM, unit not given; relative to: vehicle).
With `CC(=O)O[C@H]1C[C@@H]2CC[C@@H]3[C@H](CC[C@@]4(C)[C@H]3C[C@H]([N+]3(C)CCCCC3)[C@@H]4OC(C)=O)[C@@]2(C)C[C@@H]1[N+]1(C)CCCCC1` the efficacy was -115 ± 9.21% (Cholinesterase (BCHE, Homo sapiens, UniProt P06276); concentration not given, Triton).
`C=C(CN(C(=O)c1c(C(F)F)nn(C)c1F)C1CC1)c1ccc(Cl)cc1Cl` has a reaction velocity of 0.00269 µM/s (SDHD/SDHC/SDHB (Sus scrofa, UniProt A5GZW8+D0VWV4+Q007T0); enzyme activity, inhibitor, DCIP reduction; pig; 0.06 µM, added: DCIP 5 µM).
For `Oc1cc(Br)cc(Br)c1Oc1ccc(Br)cc1Br`, the Vmax/Km was 1850 µL/min/mg (SULT1B1 (Homo sapiens, UniProt O43704); sulfonation, substrate).
With `O=S(=O)(c1cccc2c(Cl)cccc12)N1CCCNCC1` the IC50 was 6.31 µM (Plasmodium falciparum; 7G8).
`COc1cc(/C=C/c2ccc(O)cc2)cc(OC)c1` gave a -T∆S of 0.653 kcal/mol (O-methyltransferase (Sorghum bicolor, UniProt A0A1B6PFV1, W279A); isothermal titration calorimetry; added: RSV).
`O=C(Nc1cnccc1Cl)N1CCN(Cc2ccc3c(c2)OC(F)(F)O3)CC1` gave an inhibition of 3% (FGFR1 (Homo sapiens, UniProt P11362); kinase activity, inhibitor; 10 µM, human, added: poly(Glu:Tyr) substrate).
The Hill coefficient of `O=C1[O][Pt]2([NH][C@@H]3CCCC[C@H]3[NH]2)[O]C1=O` is reported as 1.8 ± 0.2 (Chrna7 (Rattus norvegicus, UniProt Q05941); ion current, antagonist; added: nicotine 25 µM).
The kinact/KI of `Cc1cc(C)n2c1C=C1C=CC(CCC(=O)Nc3ccc(OCC(=O)N[C@@H]4C(=O)N5[C@@H]4SC(C)(C)[C@@H]5C(=O)[O-])cc3)=[N+]1[B-]2(F)F.[Na+]` is reported as 30200 ± 5800 M⁻¹ s⁻¹ (Penicillin-binding protein 1A (pbpA, Streptococcus pneumoniae, UniProt Q8DR59); whole-cell time course; live Streptococcus pneumoniae cells).
With `Fc1ccc(Oc2ccnc3cc(Cl)cc(Cl)c23)cc1` the EC10 was 0.00814 µM (PPARG (Homo sapiens, UniProt P37231); reporter gene, agonist, β-lactamase reporter; HEK293-H cells; freely dissolved concentration).
For `Oc1ccc(-c2cc(Cl)ccc2Cl)c(Cl)c1`, the IC25 was 1.5 µM (AR; reporter gene, antagonist; 24 h, added: DHT 2 nM).
For `Cc1c[nH]c2ncnc(N3CCC(CN)(C(=O)Nc4cccc(OC(=O)N(C)C)c4)CC3)c12`, the efficacy was -97.5 ± 6.62% (Cholinesterase (BCHE, Homo sapiens, UniProt P06276); concentration not given, Triton).
For `Nc1nc2c(ncn2[C@@H]2O[C@@H]3COP(=O)(O)O[C@H]4[C@@H](O)[C@H](n5cnc6c(=O)[nH]c(N)nc65)O[C@@H]4COP(=O)(O)O[C@H]3[C@H]2O)c(=O)[nH]1`, the -TΔS was -6.3 kcal/mol (Cell cycle histidine kinase CckA, R374A; cytoplasmic region (Caulobacter vibrioides, UniProt Q9X688, R374A); ITC; 12 °C, added: AMPPNP 5 mM).
`O=C(Nc1cccnn1)N1CCC(=Cc2cccc(Oc3ccc(C(F)(F)F)cn3)c2)CC1` — result for “inhibition of binding”: 12% (High affinity choline transporter 1 (Rattus norvegicus, UniProt Q9JMD7); radioligand binding; 50 µM, rat transporter, added: [3H]hemicholinium-3).
With `CCN(CC)C(=O)Oc1ccc(/C=C/C(=O)NC2CCN(Cc3ccccc3)CC2)cc1OC` the selectivity ratio was 0.7 (Cholinesterase (BCHE, Equus caballus, UniProt P81908); Ellman; equine serum BuChE; relative to: AChE IC50 over BuChE IC50).
`Nc1nc2c(ncn2[C@@H]2O[C@H](COP(=O)(O)OP(=O)(O)OP(=O)(O)O)[C@@H](O)[C@H]2O)c(=O)[nH]1` has a binding enthalpy of -7.03 ± 0.32 kcal/mol (GTP 3',8-cyclase (moaA, Staphylococcus aureus, UniProt P69848, R17K); isothermal titration calorimetry; concentration not given, 25 °C, R17K mutant, anaerobic).
The activation of `CN1CCN(c2cc(-c3ccncc3)c(-c3ccc4ccccc4c3)nn2)CC1` is reported as 0.8% (NPY2R (Homo sapiens, UniProt P49146); agonist, FLIPR; 12.5 µM).
With `C=C1[C@@H]2CC[C@@]3(C)[C@H](c4ccoc4)OC(=O)C[C@]13O[C@H]1CC(=O)C(C)(C)[C@H](CC(=O)OC)[C@]12C` the efficacy was -73.1 ± 16.6% (Cholinesterase (BCHE, Homo sapiens, UniProt P06276); concentration not given, Triton).
`Clc1ccc(-c2ccc(Cl)cc2Cl)cc1` gave an IC25 of 1.4 µM (AR; reporter gene, antagonist; 24 h, added: DHT 2 nM).
For `CN(C)CCCN1c2ccccc2CCc2ccccc21`, the IC50 was 12.6 µM (Plasmodium falciparum; 3D7).
`CCN(CC)C(=O)Oc1ccc(/C=C/C(=O)NC2CCN(Cc3ccccc3)CC2)cc1` gave a selectivity ratio of 0.3 (Cholinesterase (BCHE, Equus caballus, UniProt P81908); Ellman; equine serum BuChE; relative to: AChE IC50 over BuChE IC50).
`[2H]c1c([2H])c([C@]2([2H])CCCN2C(=O)C(C)(C)Oc2ccc3cn[nH]c3c2)c([2H])c([2H])c1C([2H])([2H])[2H]` has a remaining binding of 100% (PNCK (Homo sapiens, UniProt Q6P2M8); KINOMEscan; 1 µM; relative to: DMSO control).
With `Nc1ncnc2c1ncn2[C@@H]1O[C@H](COP(=O)(O)OP(=O)(O)OP(=O)(O)O)[C@@H](O)[C@H]1O` the Km was 270 µM (Na+/K+-ATPase).
For `Cc1[nH]c(C)c(S(=O)(=O)Nc2ccc(S(=O)(=O)F)c(Cl)c2)c1C(=O)N1CCC(F)(F)C1`, the Imax was 100 ± 1% (DRD3 (Homo sapiens, UniProt P35462); β-arrestin recruitment, agonist, PathHunter; relative to: dopamine).
`COc1cc(N)c(Cl)cc1C(=O)NC1CN2CCC1CC2` (stereo not shown): “log2 fold change” 0.344 (G-protein coupled receptor 61 (GPR61, Homo sapiens, UniProt Q9BZJ8); β-arrestin recruitment, TANGO luminescence, measured: GPR61; concentration not given; relative to: basal luminescence).
`COc1cc(Nc2ncc(F)c(Nc3ccc4c(n3)NC(=O)C(C)(C)O4)n2)cc(OC)c1OC` has an inhibition of 0% (MAP3K7 (Homo sapiens, UniProt O43318); binding, KINOMEscan; 10 µM, TAK1 kinase).
With `Cc1c(Cl)c(=O)oc2cc(OCCCC[Se]C#N)ccc12` the selectivity ratio was over 1400 (CA12 (Homo sapiens, UniProt O43570); stopped-flow CO2 hydration; relative to: Ki CA II over Ki CA XII).
`CC[C@H](C)[C@H](NC(=O)[C@H](CCC(N)=O)NC(=O)[C@@H](NC(=O)[C@@H]1CCCN1C(=O)[C@@H](NC(=O)[C@H](CO)NC(=O)[C@H](Cc1ccccc1)NC(=O)[C@@H]1CCCN1C(=O)[C@H](CCC(N)=O)NC(=O)[C@@H](N)CCSC)[C@@H](C)CC)C(C)C)C(=O)N[C@H](C(=O)N[C@@H](CC(C)C)C(=O)N[C@@H](CCC(N)=O)C(=O)NCC(=O)N[C@@H](CO)C(=O)N[C@@H](CCCNC(=N)N)C(=O)N[C@@H](CCCNC(=N)N)C(=O)N[C@@H](CCCNC(=N)N)C(=O)N[C@@H](CCC(N)=O)C(=O)NCC(=O)N[C@@H](CCCNC(=N)N)C(N)=O)[C@@H](C)O` has a Hill coefficient of 1.21 (Kcnma1 (Mus musculus, UniProt Q08460); ion current, blocker, inside-out patch clamp; Xenopus oocytes; +80 mV, added: 10 µM cytosolic Ca2+).
For `NCCc1c[nH]c2ccc(O)cc12`, the Km was under 10 µM (Serotonin N-acetyltransferase (Aanat, Mus musculus, UniProt O88816); enzyme activity, colorimetric DTNB; added: acetyl-CoA).
`Nc1ncnc2c1ncn2[C@@H]1O[C@H](COP(=O)(O)OP(=O)(O)NP(=O)(O)O)[C@@H](O)[C@H]1O` gave a ΔH of -1.87 ± 0.23 kcal/mol (N-acetylmannosamine kinase (nanK, Haemophilus influenzae, UniProt Q4QP43, T131V); binding).
With `Nc1ccn([C@H]2C[C@H](O)[C@@H](COP(=O)(O)OP(=O)(O)OP(=O)(O)O)O2)c(=O)n1` the kcat was 0.109 ± 0.0215 s⁻¹ (Gag-Pol polyprotein, reverse transcriptase (gag-pol, Human immunodeficiency virus type 1 group M subtype B, UniProt P04585, K653R); nucleotide misincorporation, steady-state kinetics; K66R RT, added: matched template/primer, template T).
The kobs of `C=CCNCC(=O)O` is reported as 4.2 s⁻¹ (putA (Sinorhizobium meliloti, UniProt F7X6I3); FAD reduction, substrate, stopped-flow; 5 mM, anaerobic).
With `CN1CCc2[nH]c3ccccc3c2CC1.O=C(O)/C=C/C(=O)O` the Hill coefficient was 1.1 (Voltage-dependent N-type calcium channel subunit alpha-1B (Homo sapiens, UniProt Q00975); barium current, inhibitor, whole-cell patch clamp; HEK293T).
